# Results of several laboratories.
# Numbered parts are unrelated; each lists some results of a single study.
# Chain of UniProt Q92985 (whole entry, unmodified, looked up): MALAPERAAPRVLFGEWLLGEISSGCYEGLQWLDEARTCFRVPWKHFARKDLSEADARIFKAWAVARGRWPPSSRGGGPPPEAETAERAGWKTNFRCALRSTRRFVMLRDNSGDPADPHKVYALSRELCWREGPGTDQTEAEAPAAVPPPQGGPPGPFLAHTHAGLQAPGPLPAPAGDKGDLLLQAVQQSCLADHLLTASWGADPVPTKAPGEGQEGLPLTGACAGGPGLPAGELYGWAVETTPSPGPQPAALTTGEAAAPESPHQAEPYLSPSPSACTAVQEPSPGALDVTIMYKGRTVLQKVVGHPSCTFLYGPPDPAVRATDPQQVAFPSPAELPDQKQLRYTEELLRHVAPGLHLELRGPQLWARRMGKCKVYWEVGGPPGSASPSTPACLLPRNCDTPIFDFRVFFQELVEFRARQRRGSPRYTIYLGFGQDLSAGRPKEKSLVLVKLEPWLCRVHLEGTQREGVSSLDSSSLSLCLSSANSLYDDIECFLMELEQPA

# Block 1
# Target: Sal-like protein 4, full length isoform B (SALL4, Homo sapiens, UniProt Q9UJQ4-2, residues 1-616)
# Technique: universal PBM
# Molecule type: double-stranded DNA, one strand shown
# Matrix: in vitro
# Tested at: not given
# Notes: 8-mer, flanks averaged, mean of replicates
# Direction: higher = stronger binding
# Construct (chain): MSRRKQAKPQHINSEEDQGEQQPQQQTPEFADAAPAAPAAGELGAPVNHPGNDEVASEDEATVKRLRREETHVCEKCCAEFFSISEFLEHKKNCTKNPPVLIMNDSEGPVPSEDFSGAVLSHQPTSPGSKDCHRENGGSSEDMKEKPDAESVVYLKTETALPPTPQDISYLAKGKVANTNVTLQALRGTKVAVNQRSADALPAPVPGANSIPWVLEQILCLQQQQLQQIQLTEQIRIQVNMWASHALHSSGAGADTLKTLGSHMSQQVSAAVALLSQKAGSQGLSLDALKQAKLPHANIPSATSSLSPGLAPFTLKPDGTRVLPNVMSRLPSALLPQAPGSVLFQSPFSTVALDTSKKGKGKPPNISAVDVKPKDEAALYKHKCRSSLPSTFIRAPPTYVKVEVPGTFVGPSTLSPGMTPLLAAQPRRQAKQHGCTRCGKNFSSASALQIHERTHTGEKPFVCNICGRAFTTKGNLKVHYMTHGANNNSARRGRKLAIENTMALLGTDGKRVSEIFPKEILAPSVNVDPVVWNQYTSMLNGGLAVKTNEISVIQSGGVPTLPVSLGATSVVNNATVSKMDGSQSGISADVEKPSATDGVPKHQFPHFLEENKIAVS
Oligonucleotide,E-score
CTTTTCGC,0.0231
CTTTTTAC,0.111
CACATGAA,0.191
CAAATCTG,0.0332

# Single results of other studies
Molecule,target,assay,test system,setting,scale,quantity,value
GCCTAGCACTTAGATATCGGTACTGGATTAGTGCTAGTCTTGATTCGCTTGACGCTGCTG,"Interferon regulatory factor 7, full length, phosphomimetic (IRF7, Homo sapiens, UniProt Q92985, residues 1-503, S101K/S471D/S472D/S475D/S476D/S477D/S483D/S484D/S487D)",protein-binding microarray,"double-stranded DNA, one strand shown, in vitro","250 nM, 60-bp whole probe, together with: salmon DNA 0.4 mg/ml","baseline: random background probes, higher = stronger binding",log fluorescence,0.321 z-score
TATGTCAA,"Histone acetyltransferase KAT6A, both winged helices, GST fusion (KAT6A, Homo sapiens, UniProt Q92794, residues 1-181)",protein binding microarray,"double-stranded DNA, one strand shown, in vitro","not given, 8-mer, flanks averaged, mean of 2 arrays, mostly near background","baseline: not given, higher = stronger binding",E-score,0.00322
"PhoQ, residues 284 288 289 292 302 303 GANMMA","PhoP, residues 12 14 15 18 19 GQAIL (Escherichia coli, UniProt P23836)","Sort-seq, item: YFP reporter",E. coli,"PhoQ-PhoP variant library, together with: 10 µM Mg2+","baseline: high Mg2+ state, higher = stronger signaling",fold induction,1.59
GCCTAGCACGACGATATCGGGTATCGAAACGTGCTAGTCTTGATTCGCTTGACGCTGCTG,"Interferon regulatory factor 5, full length, phosphomimetic (IRF5, Homo sapiens, UniProt Q13568-2, residues 1-514, K96S/S451D/S453D/S456D/S462D)",protein-binding microarray,"double-stranded DNA, one strand shown, in vitro","250 nM, 60-bp whole probe, together with: salmon DNA 0.4 mg/ml","baseline: random background probes, higher = stronger binding",log fluorescence,4.68 z-score

# Some of these lines once more (block 1):
Oligonucleotide,E-score
CTTTTTAC,0.111
